Experimental data pooled from the literature.
Numbered parts are unrelated; each lists some results of a single study. Changes are numbered by the printed parent chain.

Set 1 — method: DHFR PCA, deep sequencing; sample: yeast; together with: (+)-ABA 1.4 µM; relative to: wild-type fitted maximum; reading: higher = stronger binding
Target: ABI1, truncated, D143A, DHFR fusion (Arabidopsis thaliana)
Notes: methotrexate growth selection, single substitutions
Starting sequence: PYL1, truncated, DHFR fusion (Arabidopsis thaliana); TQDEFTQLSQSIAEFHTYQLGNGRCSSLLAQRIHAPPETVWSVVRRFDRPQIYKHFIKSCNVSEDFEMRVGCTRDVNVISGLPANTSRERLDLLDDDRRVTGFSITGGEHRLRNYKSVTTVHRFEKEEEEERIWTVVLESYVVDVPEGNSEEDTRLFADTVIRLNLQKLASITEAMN
Substitution | relative binding score [%]
V121S | -7.12
M68R | -0.262
E130Y | 39.9
A175H | 46.7
R163C | -7.23
S11L | 31
E89F | 0.448
N177C | 69.4
V43K | -4.25
R155W | -5.27
Q167S | 58.8
D65C | 26.4
C25E | -18.7
T119S | 0.967
E109M | 8.82
L8G | -3.93
R32P | 28.4
P36E | 40.4
I79W | 40.8

Set 2 — method: RNA Bind-n-Seq; form: RNA; sample: in vitro; tested at: 200 nM; notes: whole 134-nt RNA, ends assumed; together with: 150 mM LiCl; relative to: input library; reading: higher = stronger binding; all molecules: 7-deaza-guanosine replaces G
Target: Fragile X messenger ribonucleoprotein 1, C-terminal low-complexity region (Fmr1, Mus musculus, UniProt P35922)
Constant ends, left off below: GGGAGUUCUACAGUCCGACGAUC … UGGAAUUCUCGGGUGUCAAGG
Oligonucleotide | log2 enrichment
CUGUGCUACACAUCGUAUGUACCGAAUCGGAAAAAAAGGGAAAAAAAGGGGAAAAAAAGGGAAAGUAUUAUGUUACGCCGUUCGGAUCUG | -0.311
GUCCUGUGCUACACAUCGUAUGUACCGAAUCGGGUUUUUGGGUUUUUGGGGUUUUUGGGAAAGUAUUAUGUUACGCCGUUCGGAUCUGCA | -0.829
UAACUUUAGAGGAGGAUCUGAUGGAUAUGGCAGUGGCCGUGGAUUUGGGGAUGGCUAUAAUGGGUAUGGAGGAGGACCUGGAGGUGGCAA | -0.485
UCCUGUGCUACACAUCGUAUGUACCGAAUCAAAUUUUUUUAAAUUUUUUUAAACCCAAAAAAGUAUUAUGUUACGCCGUUCGGAUCUGCA | -0.455
CACAGACAACACGCACCCACACAGACACAGAGAGAAGGGGUUGGGAUGGGGACAGGGUGCACAGCAGGGCGGGGUAGGACCCCAGCCCCU | 0.594
CCUGUGCUACACAUCGUAUGUACCGAAUCGGGGUUUUUUGGUUUUUUGGGGUUUUUUGGGGAAAGUAUUAUGUUACGCCGUUCGGAUCUG | -1.1
AAGUCCUGUGCUACACAUCGUAUGUACCGAAUCGGUUUUUGGUUUUUGGUUUUUGGAAAGUAUUAUGUUACGCCGUUCGGAUCUGCACUU | -2.09
UGGACUGCCUAUGGAAGAAGAAGUUCAAGAAGGAGCACGAGGAGUUUGAGACCAUGGAGAACGUGAACCGCCUUCUUCUGGAGAACGUCC | -1.58

Set 3 — target: CCNA1, cyclin fold, Cln2 fusion (human); method: yeast growth competition, sequencing; sample: yeast; notes: weak parent motif; relative to: not given; reading: higher = stronger binding
Starting sequence: SCAPER docking peptide (human); SNARRSLNFGGST; partner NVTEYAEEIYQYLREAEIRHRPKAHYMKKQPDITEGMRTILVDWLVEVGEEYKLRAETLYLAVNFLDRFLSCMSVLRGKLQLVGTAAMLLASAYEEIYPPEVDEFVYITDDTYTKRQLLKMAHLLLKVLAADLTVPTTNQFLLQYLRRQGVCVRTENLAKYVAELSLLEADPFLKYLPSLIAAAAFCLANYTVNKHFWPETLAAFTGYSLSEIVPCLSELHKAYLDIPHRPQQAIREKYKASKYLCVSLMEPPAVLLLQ
Substitution | normalised enrichment score
INARRSLNFGGST [S1I] | 0.479
SNARRSLNFGKST [G11K] | 0.892
SNARRSLNFAGST [G10A] | 0.501
SNARRSFNFGGST [L7F] | -0.00813
SNARRSLNNGGST [F9N] | 0.196
SNARRSLNFCGST [G10C] | 0.446
SNARRSLNFGHST [G11H] | 0.614
SNARRSLCFGGST [N8C] | 0.265
SNARRSLNFGFST [G11F] | 0.765
SNARRSLNFGGSY [T13Y] | 0.49
SNARMSLNFGGST [R5M] | 0.548
SNARRSLWFGGST [N8W] | 0.542
SNARRSLNEGGST [F9E] | 0.00804
SNARRSCNFGGST [L7C] | 0.356
SNARRSLSFGGST [N8S] | 0.592
SNAGRSLNFGGST [R4G] | 0.378
SNARQSLNFGGST [R5Q] | 0.315
SNARRSLNFGGSM [T13M] | 0.538
SNARRSPNFGGST [L7P] | 0.261

Set 4 — method: aptamer microarray, sandwich; form: DNA with 2'F-ANA; sample: in vitro; tested at: 200 nM; together with: Cy3 exosite-II aptamer, 400 nM; reading: higher = stronger binding; oligonucleotide: GGTTGGTGTGGTTGG
Target: Prothrombin, mature alpha-thrombin (F2, Homo sapiens, UniProt P00734)
Notes: whole 15-mer aptamer, many near background
Modification | mean fluorescence intensity [a.u.]
2'F-ANA at 1 2 3 5 7 8 11 12 13 14 | 47
2'F-ANA at 2 3 4 5 6 7 11 15 | 68.3
2'F-ANA at 2 3 4 6 7 12 | 843
2'F-ANA at 3 5 6 9 10 11 12 13 15 | 59.5
2'F-ANA at 1 2 3 5 7 8 10 12 14 | 44.2
2'F-ANA at 2 4 6 7 10 12 15 | 131
2'F-ANA at 1 3 4 6 8 12 13 14 | 83.5
2'F-ANA at 1 6 7 11 12 13 14 15 | 67.9
2'F-ANA at 3 5 10 11 13 14 | 50.5
2'F-ANA at 2 4 10 12 13 | 109
2'F-ANA at 4 5 9 10 11 12 14 | 66.2
2'F-ANA at 2 4 5 7 8 10 14 | 44.4
2'F-ANA at 1 2 5 6 7 9 10 15 | 49.1
2'F-ANA at 2 3 7 12 13 14 15 | 484
2'F-ANA at 2 4 6 7 12 13 15 | 374
2'F-ANA at 3 4 5 7 8 10 14 15 | 48.1

Some of these lines once more (set 3):
Substitution | normalised enrichment score
SNARRSFNFGGST [L7F] | -0.00813
SNARRSLNNGGST [F9N] | 0.196
SNARRSLNFCGST [G10C] | 0.446
